Published values collected from several papers.
Each numbered part is a random draw from the data of one study; scales do not carry over between parts.

Block 1
Target: RING finger protein unkempt homolog, zinc fingers 1-6, GST-SBP tag (UNK, Homo sapiens, UniProt Q9C0B0, residues 30-357)
Sequence of UniProt Q9C0B0 (30-357, looked up): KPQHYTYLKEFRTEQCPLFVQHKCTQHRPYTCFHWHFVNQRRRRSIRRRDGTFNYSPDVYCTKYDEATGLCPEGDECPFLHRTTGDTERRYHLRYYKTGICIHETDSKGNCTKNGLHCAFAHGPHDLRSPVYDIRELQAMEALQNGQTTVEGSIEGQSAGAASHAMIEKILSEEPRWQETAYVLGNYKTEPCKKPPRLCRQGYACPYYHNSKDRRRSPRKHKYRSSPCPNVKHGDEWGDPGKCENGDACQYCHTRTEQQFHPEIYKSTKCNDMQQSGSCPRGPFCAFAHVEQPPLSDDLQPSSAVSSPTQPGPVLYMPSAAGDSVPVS
Method: RNA Bind-n-Seq
Form: RNA
Matrix: in vitro
Tested at: not given
Notes: RNA with constant flanks, human-mouse chimeric sites, ends assumed
Reference: input RNA pool
Direction: higher = stronger binding
Endpoint: bound/input enrichment
Shared flanks, not repeated: GGGAGUUCUACAGUCCGACGAUC … CAACAGAGGAUUGAGCAUCA
AAAUCGUGUGUGUCCAAUAUUGAAAGUGCUUUAUCUACACUCCAGUAUGUAAGCAGCAUAGUAGUUUCUUUAGAGAAUAGGUCUGCCAUUGUAAAGUACAAUGCAAGCUUAGUCACUCCA: 1.82 ratio
UCCCAAAUCCAGCAGCUAGAAGGAGCCUUGAGACAAACACUCCACACACAGGGAAGGCGAUAACAUUGUACAUUGGUUUACAUUUUUCUCCUUGAAUGAUUUUUCUAGAGGUCAUAGUGC: 0.53 ratio
AUUGUUGAAGCGAAUCCACUUUUAGAAGCAUUUGGAAAUGCAAAGACUGUUCGCAACAAUAAUAGCAGUCGAUUUGGGAAAUUUGUAGAAAUUCAUUUUAAUGAAAAGAGUUCGGUUGUU: 0.641 ratio
UCUGGUCACACUCGUGUGUAUGGUGUUUGCUUUGUGGACACUUCACUGGGCAAGUUUUUCAUCGGCCAGUUUUCGGAUGACCGCCACUGUUCGAGAUUUAGGACUCUAGUGGCUCACUAU: 0.139 ratio
UCUUUGUGUAACUUAUCUGUAAAAGGUUCCCCCCCCCACUGUCAAAAAAAUAUGCAUGUAUAGUAAUUAGGACUUCAUUCCUCCAUGUUUUCUUCCCUUAUCUUACUGUCAUUGUCCUUA: 2.34 ratio
UUCAAAGAAAAGGGCAGCUGUGUCAUUUCAUAAGUAACUCUGGGGGAGGGAAAUUCUAACUAGUUUGUUAAUUUUCCCCCAAAUGAAGCCAAAGUGUGUGUUGAAGAACUGAGAAAAAAU: 0.862 ratio
UAAAUUAGGGCUGCCGUUUUCUGUUUCUCCCUGGGCUGCGGAAAGCCAGAAGAUUUUAUCUAGCUUAUACAAGGCUGCUGGUGUUCCCUCCCUCCCGCCACGAGGGUGUUUUUGGCUGCA: 0.613 ratio
UUUGUAUUCAUGUUAAGCACACGUGCUGGUGGUCUGGGCAUCAAUCUUGCAACUGCUGAUGUAGUCAUUUUAUAUGAUUCUGAUUGGAAUCCGCAAGUUGAUCUUCAGGCUAUGGACCGU: 0.259 ratio
GUGACUGGUGUUAAGAUUUCCCCUCAGCAAAGAAGUGUAGCAGUGACCAUAAUUCCAUCUGUGGUGAGUGCCAGUCAGAUUGUGGAGCUGGUUCCAGACCUCAGUUUAGACAUGGGAACU: 0.342 ratio
AGAAAGCAAAACUUGGAACGAUUUAAGAAAGGAGACGUAAGAUUCUUGAUUUGCACAGAUGUAGCUGCUAGAGGGAUUGAUAUCCAUGGCGUUCCUUAUGUUAUAAACGUCACCCUGCCU: 0.228 ratio
UCUUUAAAAAAAAAAUUACAGGAAAAUCAUAUUAUAGCCCUCCCAUAGAUCCACGUUCAAGCUCAAAGAGCAAAGGCUUUGCACGGAGCUCAAACAUCUGAUGAAGAAAGAUUUCUGAGA: 2.96 ratio

Block 2
Target: RNA binding protein fox-1 homolog 2, RRM domain, GST-SBP tag (RBFOX2, Homo sapiens, UniProt O43251-10, residues 100-194)
Method: RNA Bind-n-Seq
Form: RNA
Matrix: in vitro
Tested at: 365 nM
Notes: natural RNA segment, single round, ends assumed
Reference: no-protein control
Direction: higher = stronger binding
Endpoint: RBNS enrichment (R)
Shared flanks, not repeated: GGGAGUUCUACAGUCCGACGAUC … UGGAAUUCUCGGGUGCCAA
Construct (chain): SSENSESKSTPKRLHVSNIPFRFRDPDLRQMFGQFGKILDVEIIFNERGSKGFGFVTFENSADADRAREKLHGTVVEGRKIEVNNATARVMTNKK
GAUUCUGACUUUUUUAAAAAUUCUUUUCUAAUUAUUGUAAAAAGUAUAUUAUAUCUUAAGUCAGUUUCCGUGGCAUCUACUGAAUAAAAAUUCAGCAGAUCUCCUUUCUA: 0.435
UUCUCUGAAGUUGCCUAGAGCACCAUCACAGCUAGGAAGCUUCCAUCAUGAAUUACCUUAUUUCCAAAAGCAAGUACUCAAAUAAUUGUCUCAAGAGAGGAAGGACAAAA: 0.455
UCAAAUACUCUGUCUGCUAUGGAAAGUUCCAGUGUGCUGACUGGUCUGUGAUUUUGUACCUUGUGAAGGAGACAGAGGGAGGCAGAUGAAUAAACAGUUGCUCUCUGUCC: 0.29
CUGUUCCAAACUAUUCCAUCAUCCUGUCCCAAUUGCCAAUAGAAAAGCUAAAAUCCCUGGCUCAGUUGCUAGAGUGCCUAGUAAAAUUCCUAGCAUAUGUGAGCGCUCCA: 0.492
CUGCUUAGUAGCCUUGAAGCAGCACAUCUCCACUGUCCCUGGCAGGAUUGUGGGAGGCUUCACAACCCCUGCUUUCCUGACUUCCUCUUCUGCCCAACACUGGGUGCCCC: 0.564
GCUCUUCUUGGGGAAAGUGGUCAACCCAGCUGCUGGGUAAUUGUGGUGGGGAGGCCACAGGAAGGCCCAACCUGCACGGCAGGACCCCCCUGCAUGGCAGGACCCCUGUG: 0.542
AGUGAACGUUUCCAUCGUUAGAAUGUUUUCUCUGGCCAUUUGUGGAUUUAAUGCACUUGACGUGGAUUAAGUUAUUCUGAGCAUGUUACUGUAAUGAUUCUCAAAUUAAC: 1.13
UACCUGCAUAUCUUCUUAAAAGAAAUAGCUGUUAUUAAUGCCUUUUUGUUUUCCAUUGAGUGUACACUACUGAAUAAGUGUAGGAGUUUUAUGUUUACCAUGUGAGUCCU: 0.611
AUCAGGCGCAGAAAUGAGGAUUACUGUUUCUUCCAGAUUUUGUUAAGAAUGUGUUCAGAUAUUUGUGUUUUCUUUCCUCAAUUUCUUACCAUGUAAUGUAACAUCAAUUA: 0.519
AGGGAUACAUACAGUUGCAUGUCUGCUUCAAUUAGCAGAUGCUGCAGAUCCACACAGUGUAAAAUACUAUACAACCAAACAUCCGCCUUUACAGGUCGUUAUUCUUCUAA: 1.45
AGGGCAGACAGGAGUCCAGGCUCCAAGCUAUCCCCUUGCCUCUUUCUGCCCCCAGCCCCACCCCCCAACCAGUCUGCCUGUUGCCCCACUCAGCCCUGAGUGUUAGGCAC: 0.33
UAAGGCAUAAAUGCAGGUAAUUAUUCCCAGCUGACCUAAAGUCAAUAAAACAUUCUGUUUAAGUGUUUUUCUUACGUUUUUCUCAAUGAGUUAAUCAACAAGUAUUUAUU: 0.471

Block 3
Target: Histone acetyltransferase KAT6A, winged helix 2, GST fusion (KAT6A, Homo sapiens, UniProt Q92794, residues 85-181)
Method: protein binding microarray
Form: double-stranded DNA, one strand shown
Matrix: in vitro
Tested at: not given
Notes: 8-mer, flanks averaged, mean of 2 arrays, mostly near background
Reference: not given
Direction: higher = stronger binding
Endpoint: E-score
Construct (chain): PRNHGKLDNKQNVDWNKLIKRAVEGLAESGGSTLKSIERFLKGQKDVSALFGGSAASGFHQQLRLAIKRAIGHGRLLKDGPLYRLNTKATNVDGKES
CCTCGACA: 0.0253
AAGAGGAG: 0.0857
CAGCCTGC: 0.11
AGCATCAA: 0.172
CCCCCACG: -0.0983
ATAGATTG: -0.0393
ATGACGGC: -0.0989
CGCTCCCC: 0.0194
ATGTAAGC: -0.0665
CAATCAAC: 0.0036
CATTGTAA: -0.13
CCCGTTGC: -0.015
AGCACAAA: 0.228
AGCATGCA: -0.143
GACGTATA: -0.25
ACATCCAG: 0.0458
AGCTCCAT: 0.00812
AGTCCCAG: 0.011
CCGGATAC: -0.0599
GGAACGAA: 0.0385

Block 4
Target: Fragile X messenger ribonucleoprotein 1, C-terminal low-complexity region (Fmr1, Mus musculus, UniProt P35922)
Method: RNA Bind-n-Seq
Form: RNA
Matrix: in vitro
Tested at: 200 nM
Notes: whole 134-nt RNA, ends assumed
Together with: 150 mM KCl
Reference: input library
Direction: higher = stronger binding
Endpoint: log2 enrichment
Shared flanks, not repeated: GGGAGUUCUACAGUCCGACGAUC … UGGAAUUCUCGGGUGUCAAGG
ACCAUGCAGGUGGGCAUCUUUGGGAAGUUGGGCAAGGGGGGGAUAGGGAGGGGGGUAACACUUUGGGAACAGGUGGUCCCAGGUCGUUUC: 1.01
CUCAAGUCCUGUGCUACACAUCGUAUGUACCGAAUCGGUUUUUGGAAAGGUGGAAAGUAUUAUGUUACGCCGUUCGGAUCUGCACUUCCA: -0.199
AAGUCCUGUGCUACACAUCGUAUGUACCGAAUCGGGGUUUGGGGUUUGGGGUGGGGAAAGUAUUAUGUUACGCCGUUCGGAUCUGCACUU: 1.24
CCUGUGCUACACAUCGUAUGUACCGAAUCGGGGUUUUUUGGGGUUUUUUGGUUUUUUGGGAAAGUAUUAUGUUACGCCGUUCGGAUCUGC: -0.256
CAAGUCCUGUGCUACACAUCGUAUGUACCGAAUCAAAUUUAAAUUUAAAUUUAAAAAAGUAUUAUGUUACGCCGUUCGGAUCUGCACUUC: -0.962
GUCCUGUGCUACACAUCGUAUGUACCGAAUCGGGAAAAAAGGGAAAAAAGGAAAAAAGGAAAGUAUUAUGUUACGCCGUUCGGAUCUGCA: -0.576
UCCCCCCUAUUGGAAGUAAAGGGGAACAUAGAACUGAAGAGACCUCUGAUUAAGGCCCCUUCCCAGCUGCCUCUCUCAGGAAGCAGACUC: -0.807
CACAGACUACACGCACCCACACAGACACAGAGGGAAGGGGUUGGGAUGGGGACAGGGUGCACAGCAGGGCGGGGUAGGACCCCAGCCCCU: 1.38
ACUUUGUCAGAUAUUGCUAGGGACCAGUGAGAUAGAUAAUCCAAAAAUAAUAAUUUGACUUUGGUUGAGUAUGUCAUUACCACAGUGUUA: -1.75
AAGUCCUGUGCUACACAUCGUAUGUACCGAAUCGGAAAAAAAGGUUUGGUUUUUGGAAAGUAUUAUGUUACGCCGUUCGGAUCUGCACUU: -1.16
CCUCAAGUCCUGUGCUACACAUCGUAUGUACCGAAUCGGGUGGGUGGGUGGGAAAGUAUUAUGUUACGCCGUUCGGAUCUGCACUUCCAG: 0.784
GGGGUGAGCACAGACAGGAUCGCAGGGAGAGGCCGUAUUAAUUAGCCUGGCUCCCCAGGUUCUGGAACAGCUUUUUGUCCUGUACCCAGU: 0.116
UCAAGUCCUGUGCUACACAUCGUAUGUACCGAAUCGGGGAAAGGAAAGGGAAAGGAAAGUAUUAUGUUACGCCGUUCGGAUCUGCACUUC: -0.349
UGGGAGGUGGAUUUUGUUUAUUUUUUUAGCUCAUUUCCAGGGGUGGGAAUUUUUUUUUAAUAUGUGUUAUGAAUAAAGUUGUUUUUGAAA: 0.159

Excerpt of the above (block 1):
UCUGGUCACACUCGUGUGUAUGGUGUUUGCUUUGUGGACACUUCACUGGGCAAGUUUUUCAUCGGCCAGUUUUCGGAUGACCGCCACUGUUCGAGAUUUAGGACUCUAGUGGCUCACUAU: 0.139 ratio
UCUUUGUGUAACUUAUCUGUAAAAGGUUCCCCCCCCCACUGUCAAAAAAAUAUGCAUGUAUAGUAAUUAGGACUUCAUUCCUCCAUGUUUUCUUCCCUUAUCUUACUGUCAUUGUCCUUA: 2.34 ratio
UUCAAAGAAAAGGGCAGCUGUGUCAUUUCAUAAGUAACUCUGGGGGAGGGAAAUUCUAACUAGUUUGUUAAUUUUCCCCCAAAUGAAGCCAAAGUGUGUGUUGAAGAACUGAGAAAAAAU: 0.862 ratio
UAAAUUAGGGCUGCCGUUUUCUGUUUCUCCCUGGGCUGCGGAAAGCCAGAAGAUUUUAUCUAGCUUAUACAAGGCUGCUGGUGUUCCCUCCCUCCCGCCACGAGGGUGUUUUUGGCUGCA: 0.613 ratio
UUUGUAUUCAUGUUAAGCACACGUGCUGGUGGUCUGGGCAUCAAUCUUGCAACUGCUGAUGUAGUCAUUUUAUAUGAUUCUGAUUGGAAUCCGCAAGUUGAUCUUCAGGCUAUGGACCGU: 0.259 ratio
GUGACUGGUGUUAAGAUUUCCCCUCAGCAAAGAAGUGUAGCAGUGACCAUAAUUCCAUCUGUGGUGAGUGCCAGUCAGAUUGUGGAGCUGGUUCCAGACCUCAGUUUAGACAUGGGAACU: 0.342 ratio
AGAAAGCAAAACUUGGAACGAUUUAAGAAAGGAGACGUAAGAUUCUUGAUUUGCACAGAUGUAGCUGCUAGAGGGAUUGAUAUCCAUGGCGUUCCUUAUGUUAUAAACGUCACCCUGCCU: 0.228 ratio
UCUUUAAAAAAAAAAUUACAGGAAAAUCAUAUUAUAGCCCUCCCAUAGAUCCACGUUCAAGCUCAAAGAGCAAAGGCUUUGCACGGAGCUCAAACAUCUGAUGAAGAAAGAUUUCUGAGA: 2.96 ratio
